Measurements of several laboratories.
Each line is one published result; not all experiments were run side by side. Numbers after ± are the reported error.
UniProt P32297, sequence (whole entry, looked up): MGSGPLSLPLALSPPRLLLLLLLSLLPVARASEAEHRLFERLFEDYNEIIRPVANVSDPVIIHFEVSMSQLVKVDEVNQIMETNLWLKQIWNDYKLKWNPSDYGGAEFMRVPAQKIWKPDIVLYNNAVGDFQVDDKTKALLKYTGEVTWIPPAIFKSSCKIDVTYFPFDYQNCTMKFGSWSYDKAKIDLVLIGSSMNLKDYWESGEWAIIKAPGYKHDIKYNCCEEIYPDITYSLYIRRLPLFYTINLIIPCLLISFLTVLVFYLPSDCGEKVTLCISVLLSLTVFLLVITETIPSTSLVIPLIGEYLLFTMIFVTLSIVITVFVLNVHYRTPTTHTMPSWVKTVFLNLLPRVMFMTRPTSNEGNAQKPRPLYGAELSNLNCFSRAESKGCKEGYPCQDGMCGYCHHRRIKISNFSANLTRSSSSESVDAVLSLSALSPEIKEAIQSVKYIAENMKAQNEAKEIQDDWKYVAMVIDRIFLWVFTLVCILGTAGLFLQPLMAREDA
UniProt P0A951, sequence (whole entry, looked up): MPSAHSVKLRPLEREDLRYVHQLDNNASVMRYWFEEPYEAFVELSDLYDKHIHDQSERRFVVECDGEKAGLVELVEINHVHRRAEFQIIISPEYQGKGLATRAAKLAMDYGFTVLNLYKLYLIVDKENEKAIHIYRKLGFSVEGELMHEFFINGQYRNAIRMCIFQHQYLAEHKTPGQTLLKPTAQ
UniProt P30926, sequence (whole entry, looked up): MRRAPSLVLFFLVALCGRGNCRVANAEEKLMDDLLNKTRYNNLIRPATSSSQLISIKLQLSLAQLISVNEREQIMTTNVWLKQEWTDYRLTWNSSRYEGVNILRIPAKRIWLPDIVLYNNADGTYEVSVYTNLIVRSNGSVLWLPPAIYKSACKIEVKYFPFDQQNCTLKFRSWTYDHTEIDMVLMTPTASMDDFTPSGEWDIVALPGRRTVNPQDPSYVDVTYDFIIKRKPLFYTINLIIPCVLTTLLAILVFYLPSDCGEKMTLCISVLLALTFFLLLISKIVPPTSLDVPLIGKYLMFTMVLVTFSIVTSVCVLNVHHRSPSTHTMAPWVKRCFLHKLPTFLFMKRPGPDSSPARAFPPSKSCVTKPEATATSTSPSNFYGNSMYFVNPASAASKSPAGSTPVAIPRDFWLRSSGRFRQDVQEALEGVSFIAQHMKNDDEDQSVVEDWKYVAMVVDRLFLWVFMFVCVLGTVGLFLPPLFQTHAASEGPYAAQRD
UniProt P20272, sequence (whole entry, looked up): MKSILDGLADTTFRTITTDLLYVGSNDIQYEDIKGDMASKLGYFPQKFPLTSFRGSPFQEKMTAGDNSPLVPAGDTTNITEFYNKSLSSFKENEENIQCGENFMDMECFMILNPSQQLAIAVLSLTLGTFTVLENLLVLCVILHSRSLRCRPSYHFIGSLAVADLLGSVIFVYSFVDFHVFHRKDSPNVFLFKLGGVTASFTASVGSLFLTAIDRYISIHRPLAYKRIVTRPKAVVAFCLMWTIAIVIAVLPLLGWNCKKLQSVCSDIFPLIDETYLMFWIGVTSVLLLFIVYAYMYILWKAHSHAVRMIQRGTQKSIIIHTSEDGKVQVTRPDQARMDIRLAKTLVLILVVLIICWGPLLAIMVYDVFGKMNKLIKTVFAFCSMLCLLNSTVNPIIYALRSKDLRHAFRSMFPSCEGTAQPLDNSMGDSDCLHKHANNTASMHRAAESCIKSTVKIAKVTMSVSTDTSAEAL

O=C(NNC(=O)c1ccc(CNS(=O)(=O)c2ccc(F)c(Cl)c2)cc1)c1ccccc1
inhibition (mouse hippocampal CA1 neurons; NMDA receptor EPSC; 3 µM, holding +40 mV; baseline: baseline): 35 ± 6%

CCCCCC(O)C=CC=O (stereo not shown)
Vmax (dopamine uptake; rat striatal vesicles; 60 µM, 15 min): 22 fmol/µg/min

Nc1ncnc2c1ncn2[C@@H]1O[C@H](COP(=O)(O)OP(=O)(O)O)[C@@H](O)[C@H]1O
OxPhos flux increase (mouse tissue mitochondria; concentration 12.5 to 25 µM, added: glycerol 3-phosphate): < 4%

COC(=O)C1=CCCN(C)C1
Vmax (carboxylate metabolite formation, substrate; human liver microsomes; 15 min, 0.2 °C): 783 nmol/min/mg protein

O=C(CN1CCN(S(=O)(=O)c2ccccc2F)CC1)Nc1ccccc1F
Hill coefficient (Neuronal acetylcholine receptor; alpha3/beta4 (Homo sapiens, UniProt P30926+P32297); inhibitor, calcium accumulation; HEK tsA201 cells): -0.6

NSRQTDR
inhibition (peptide, human polyclonal IgM RF AGER; concentration not given, 5 µg/mL mAb II-481 coated, added: RF at 50% max binding concentration): 0%

CCCCCc1cc(O)c2c(c1)OC(C)(C)[C@@H]1CCC(C)=C[C@@H]21
Emax (Cnr1 (Rattus norvegicus, UniProt P20272); G protein activation, agonist; Sprague-Dawley rat, male, cerebellar membranes; baseline: basal binding): 40.5%

CNSRQTDREDELI
inhibition (peptide, human polyclonal IgM RF MCC; concentration not given, 5 µg/mL mAb II-481 coated, added: RF at 50% max binding concentration): 0%

Cc1ncc(CNC(=O)c2cnc(CNS(=O)(=O)c3ccc(F)c(Cl)c3)cn2)s1
inhibition (mouse hippocampal CA1 neurons; NMDA receptor EPSC; 3 µM, holding +40 mV; baseline: baseline): 34 ± 4%

CN1C(=CC=CC=CC2=[N+](CCCCCC(=O)NCCCC[C@H](NC(=O)[C@H](CCCCNC(=O)COCCOCCOCCNC(=O)[C@H](Cc3ccccc3)NC(=O)[C@H](CCCNC(=N)N)NC(=O)[C@@H]3CCCN3C(=O)[C@H](CC(N)=O)NC(=O)[C@@H]3CCCN3C(=O)[C@H](CO)NC(=O)[C@@H](N)CCCCN)NC(=O)COCCOCCOCCNC(=O)[C@H](CCC(=O)O)NC(=O)[C@H](CCCNC(=N)N)NC(=O)[C@@H]3CCCN3C(=O)[C@H](CCCCN)NC(=O)[C@H](Cc3c[nH]cn3)NC(=O)[C@H](CCCNC(=N)N)NC(=O)[C@@H](N)CCC(N)=O)C(N)=O)c3ccc4ccccc4c3C2(C)C)C(C)(C)c2c1ccc1ccccc21
specificity (Barrett's neoplasia detection, confocal microscopy; human esophageal biopsies; 0.5 µM, T/B ratio cutoff 5.9): 87%

cholecystokinin octapeptide
phosphorylation level (rat pancreatic acini; item: Yes kinase pY416; 100 nM, 1 min, calcium-free medium; baseline: untreated): 261 ± 32%

NCCCCN
Km (speG (Escherichia coli, UniProt P0A951); substrate): 51 ± 5.4 mM

Oc1ccc(-c2ccc(Cl)cc2)cc1
fold change (microarray, item: Rock mRNA; F344 Big Blue rats, female, liver; dose not given; baseline: corn oil): 5 fold

Excerpt of the above:
NCCCCN
Km (speG (Escherichia coli, UniProt P0A951); substrate): 51 ± 5.4 mM
